Measured values of several laboratories.
Protocols differ between the studies behind these lines. Values joined by “and” are separate records of one study, mostly repeats; a detail may differ. ± marks the error that the study gave.
UniProt P05181, sequence (whole entry, looked up): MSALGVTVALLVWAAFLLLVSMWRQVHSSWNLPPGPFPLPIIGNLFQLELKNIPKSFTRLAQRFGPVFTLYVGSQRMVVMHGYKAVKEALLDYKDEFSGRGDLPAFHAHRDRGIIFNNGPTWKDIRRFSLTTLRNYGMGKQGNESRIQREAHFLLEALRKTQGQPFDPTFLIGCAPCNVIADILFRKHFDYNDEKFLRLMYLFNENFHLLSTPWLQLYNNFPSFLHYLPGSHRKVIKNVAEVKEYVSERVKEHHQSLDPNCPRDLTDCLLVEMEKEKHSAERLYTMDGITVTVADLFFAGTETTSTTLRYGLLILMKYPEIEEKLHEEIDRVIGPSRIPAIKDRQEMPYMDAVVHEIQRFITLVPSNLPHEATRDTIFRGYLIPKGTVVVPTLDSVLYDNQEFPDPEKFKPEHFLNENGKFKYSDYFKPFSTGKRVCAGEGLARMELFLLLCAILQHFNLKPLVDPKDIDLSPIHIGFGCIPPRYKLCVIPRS

SMILES | target or system | assay | test system | conditions | scale | measurement | value
[Cl-].[Cl-].[Pt+2].[Ru+2].c1ccc(-c2nc3cc4ccccc4cc3nc2-c2ccccn2)nc1.c1cnc2c(c1)ccc1cccnc12.c1cnc2c(c1)ccc1cccnc12 | Danio rerio |  | embryos | 90 µM, 24 h |  | survival rate | 70 ± 5.1%
CC(C)CC(=O)OC[C@H]1O[C@@](C#N)(c2ccc3c(N)ncnn23)[C@H](O)[C@@H]1O | Cytochrome P450 2E1 (CYP2E1, Homo sapiens, UniProt P05181) | metabolic stability | recombinant enzyme | 1 µM, 30 min |  | remaining compound | 97.1 ± 3.99%
COc1cc2c(Oc3ccc4[nH]c(C)cc4c3F)ccnc2cc1OCC1(N)CC1 |  |  | paediatric recurrent refractory sarcoma | 8 mg |  | grade 1 or 2 Proteinuria | 25%
CC1(C)[C@H](C(=O)OCc2cccc(Oc3ccccc3)c2)[C@@H]1C=C(Cl)Cl | human microsomal CES1 | IVIVE from expressed enzymes | human, 6 months old, expressed human CES1 | 0.1 µM | relative to: total hepatic CLint in vivo | relative enzyme contribution | 52.6%
Cc1cc(C(=O)NC(C)(C)COc2cccc3c2C(N)=NS(=O)(=O)N3)cc(C)n1 | Salmonella typhimurium | Ames test, confirmatory | TA98 | 333 µg/plate, added: rat liver S9 | relative to: solvent control | revertant ratio | 1
CC(=O)OC[C@H]1O[C@@H](Oc2cc(O)cc3cc4oc(C)cc(=O)c4c(O)c23)[C@H](O)[C@@H](O)[C@@H]1O | HepaRG co-cultured with HK-2 | MTT |  | 16.67 µM, 24 h | relative to: untreated control | cell viability | 102 ± 15%
CN/C(=N\[N+](=O)[O-])NCc1cnc(Cl)s1 |  |  | soil | 28 days, nominal 0.12 |  | concentration | 0.04 mg/kg dry soil
COc1cccc(-c2n[nH]c(SCc3ccccn3)n2)c1OC | Salmonella typhimurium | Ames test, plate incorporation | TA98 | 0.50 mg/plate, with rat liver S9 |  | revertant colonies per plate | 34
COc1cc2ncnc(Nc3cccc(Cl)c3)c2cc1OC | HaCaT |  |  | 0.412 µM, 60 h |  | viability | 84.9% and 96% and 100%
COc1ccc2c(c1OC)C(=O)c1c(cc(C)c(O)c1OC)C2=O | HK-2 co-cultured with HepaRG | MTT |  | 16.67 µM, 24 h | relative to: untreated control | cell viability | 98.3 ± 10.3%
CC(=O)N1CCC(C(=O)N2CCN3C(=O)c4cc(-c5ccccc5)ccc4NC(=O)C3C2)CC1 (stereo not drawn) | Salmonella typhimurium |  | TA100 | 15.8 µg/plate, added: rat liver S9 |  | revertants per plate | 118
Cc1cc2c(c(O)c1O)C(=O)c1c(O)cc(O)cc1C2=O | HepaRG co-cultured with HK-2 | MTT |  | 33.33 µM, 48 h | relative to: untreated control | cell viability | 88.3 ± 15.3%
OC(CCN1CC=C(c2ccc(F)cc2)CC1)c1ccc(F)c2ccccc12 (stereo not drawn) | Salmonella typhimurium | genotoxicity, SOS/umu test | TA1535/pSK1002 | 0.004 mg/mL, 4 h, with S9, full range |  | induction factor | 1
[Cl-].[Cl-].[Pt+2].[Ru+2].c1ccc(-c2nccnc2-c2ccccn2)nc1.c1cnc2c(c1)ccc1cccnc12.c1cnc2c(c1)ccc1cccnc12 | Danio rerio |  | embryos | 15 µM, 12 h |  | survival rate | 93.3 ± 2.1%
O=c1ccc2ccccc2o1 | HepG2 | item: steatosis |  | 24 h, phospholipidosis and steatosis panel |  | point of departure | 598 µM
CO[C@H]1C[C@@H]2CC[C@@H](C)[C@@](O)(O2)C(=O)C(=O)N2CCCC[C@H]2C(=O)O[C@H]([C@H](C)C[C@@H]2CC[C@@H](OC(=O)NCCOCCOCCOCCOCCOCCOCCOCCOCCC(=O)N3CCc4cc(Cn5nc(-c6ccc7oc(N)nc7c6)c6c(N)ncnc65)ccc4C3)[C@H](OC)C2)C[C@@H](O)[C@H](C)/C=C(\C)[C@@H](O)[C@@H](OC)C(=O)[C@H](C)C[C@H](C)/C=C/C=C/C=C/1C |  |  | patients with advanced solid tumours | intravenous, 8 mg weekly, grade 3 or higher |  | AE leading to dose reduction | 0%
C#Cc1ccc2c(c1)C(c1ccccn1)=NCc1c(-c3cnco3)ncn1-2.Cl |  | thermodynamic equilibrium, UV | methanol | 24 h, 25 °C |  | solubility | 4650 µg/mL
O=C1c2ccccc2C(=O)c2ccccc21 | HepaRG co-cultured with HK-2 | MTT |  | 66.67 µM, 48 h | relative to: untreated control | cell viability | 65.1 ± 5.75%
O=[N+]([O-])c1ccc(N2CCN(CCC(O)c3ccc(F)cc3)CC2)c(C(F)(F)F)c1 (stereo not drawn) | Salmonella typhimurium | genotoxicity, SOS/umu test | TA1535/pSK1002 | 0.008 mg/mL, 4 h, without S9, lower range |  | induction factor | 0.9
CCc1ccc(CC/C=C/c2ccc3c(c2)C(=O)CC3)cc1 |  |  | Sprague-Dawley rat, male, blood | oral, 30 mg/kg/day, 14 days |  | MCH | 20.2 pg
C[C@]1(CO)Cc2ncn(-c3ccc(C#N)c(Cl)c3)c2C(=O)O1 |  |  | healthy humans | 10 mg, fed |  | drug-related Headache incidence | 0%

Repeated from above:
SMILES | target or system | assay | test system | conditions | scale | measurement | value
COc1cc2c(Oc3ccc4[nH]c(C)cc4c3F)ccnc2cc1OCC1(N)CC1 |  |  | paediatric recurrent refractory sarcoma | 8 mg |  | grade 1 or 2 Proteinuria | 25%
[Cl-].[Cl-].[Pt+2].[Ru+2].c1ccc(-c2nc3cc4ccccc4cc3nc2-c2ccccn2)nc1.c1cnc2c(c1)ccc1cccnc12.c1cnc2c(c1)ccc1cccnc12 | Danio rerio |  | embryos | 90 µM, 24 h |  | survival rate | 70 ± 5.1%
